Experimental data from different studies.
Numbered parts are unrelated; each lists some results of a single study.

Sample 1
Target: Interferon regulatory factor 7, full length, phosphomimetic (IRF7, Homo sapiens, UniProt Q92985, residues 1-503, S471D/S472D/S475D/S476D/S477D/S483D/S484D/S487D)
Chain of UniProt Q92985 (whole entry, unmodified, looked up): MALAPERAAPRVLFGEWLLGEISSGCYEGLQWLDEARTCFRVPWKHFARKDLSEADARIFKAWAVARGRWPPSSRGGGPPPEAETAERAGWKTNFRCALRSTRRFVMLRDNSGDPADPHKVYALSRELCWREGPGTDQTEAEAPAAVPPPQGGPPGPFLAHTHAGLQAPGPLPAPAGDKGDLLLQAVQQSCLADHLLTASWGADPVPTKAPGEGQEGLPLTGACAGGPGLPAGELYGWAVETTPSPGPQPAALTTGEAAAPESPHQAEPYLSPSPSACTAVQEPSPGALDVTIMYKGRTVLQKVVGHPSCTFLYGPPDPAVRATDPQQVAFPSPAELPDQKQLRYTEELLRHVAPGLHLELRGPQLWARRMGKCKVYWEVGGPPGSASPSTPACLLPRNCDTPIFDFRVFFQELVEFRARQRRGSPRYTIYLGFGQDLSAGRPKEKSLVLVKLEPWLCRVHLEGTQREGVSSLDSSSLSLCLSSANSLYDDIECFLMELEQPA
Technique: protein-binding microarray
Molecule type: double-stranded DNA, one strand shown
Matrix: in vitro
Concentration: 2200 nM top
Notes: 60-bp whole probe
Added: salmon DNA 0.4 mg/ml
Relative to: random background probes
Reading: higher = stronger binding
Shared flanks, not repeated: GCCTAGCAC … GTCTTGATTCGCTTGACGCTGCTG
| Strand | fitted relative affinity [z-score] |
| --- | --- |
| ATTGGTTGAACATGAACTTCGTGCTAG | 0.339 |
| ATAGGTATCGACTTTCGGTTAGTGCTA | 6.27 |
| GACGGACTGGACTATTGGGACGTGCTA | -0.941 |
| TTAGAACTGGGGAATGGATTAGTGCTA | -0.461 |
| GACGGTTTCCGTCTCCTGACGTGCTAG | 3.13 |
| GACCGTTTCCTACTGCTGACGTGCTAG | 2.45 |
| GACGATATCTGGTATCGAGACGTGCTA | 0.398 |
| GTGGGAAACCGGAAAGGCAAAGTGCTA | -0.645 |
| GACGGTTTCGGGTATGGGGACGTGCTA | 5.44 |
| GACGGACTGGGGTAGCGGGACGTGCTA | -0.739 |
| TTAGGACTACTTATCCTTTAGTGCTAG | 0.278 |
| GACGGTATCCTCCTGCTGACGTGCTAG | 0.889 |
| TTAAGTATCGGGTATCGGTTAGTGCTA | 0.701 |
| CTATCTCTGTTTTTGCTTTCGTGCTAG | 4.34 |

Sample 2
Target: Histone acetyltransferase KAT6A, both winged helices, GST fusion (KAT6A, Homo sapiens, UniProt Q92794, residues 1-181)
Technique: protein binding microarray
Molecule type: double-stranded DNA, one strand shown
Matrix: in vitro
Concentration: not given
Notes: 8-mer, flanks averaged, mean of 2 arrays, mostly near background
Relative to: not given
Reading: higher = stronger binding
Target sequence (chain): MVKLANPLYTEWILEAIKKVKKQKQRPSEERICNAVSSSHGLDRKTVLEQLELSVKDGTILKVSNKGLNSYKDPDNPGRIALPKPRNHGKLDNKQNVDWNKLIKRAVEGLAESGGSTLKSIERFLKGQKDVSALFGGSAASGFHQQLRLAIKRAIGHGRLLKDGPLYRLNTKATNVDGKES
| Strand | E-score |
| --- | --- |
| GGTTAGTA | 0.0169 |
| CTATGTCA | -0.215 |
| AATCATGT | -0.0932 |
| GCTGTGAA | -0.0964 |
| GGGAGATA | -0.12 |
| CGCTGCCG | 0.312 |
| ACGGGGAG | 0.12 |
| ACTGGGAG | -0.0725 |
| AAGCGGCC | 0.241 |
| CAGTTGAG | -0.224 |
| CCATCCCC | -0.241 |
| GGCACTCA | -0.0636 |
| CGGTGACC | 0.0632 |
| AAGCGTCC | 0.107 |
| AGCCGCCA | 0.188 |
| CCCACAAA | -0.151 |
| GATATCAC | -0.0752 |
| ACAATCAA | -0.113 |

Sample 3
Target: RNA binding protein fox-1 homolog 2, RRM domain, GST-SBP tag (RBFOX2, Homo sapiens, UniProt O43251-10, residues 100-194)
Technique: RNA Bind-n-Seq
Molecule type: RNA
Matrix: in vitro
Concentration: 365 nM
Notes: natural RNA segment, single round, ends assumed
Relative to: no-protein control
Reading: higher = stronger binding
Shared flanks, not repeated: GGGAGUUCUACAGUCCGACGAUC … UGGAAUUCUCGGGUGCCAA
Target sequence (chain): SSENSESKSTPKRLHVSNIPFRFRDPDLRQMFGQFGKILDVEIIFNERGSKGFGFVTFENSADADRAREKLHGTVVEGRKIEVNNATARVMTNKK
| Strand | RBNS enrichment (R) |
| --- | --- |
| ACAUUUUUGUAAAUUCUGUGCCCUUUGCUGUAGCUACACUUCAGAUUAAAGUAGGAGAAAGAAUGUGCUGAGUGUUUUCCUCCCUUUGCCUCUACCUGGCCCUCAUCCCA | 0.679 |
| CCCUGGGGUGAGGUGCUCAGCACCUUCCUCUCGAGGAGCCACAUUUUCCUCCUUUGUGUUAGGGGACAUAACAAGCUCUGCUGGGCUUGAGGGACCCAGACCAGGUGUCU | 0.175 |
| UAUAAAAGUUUUCUUGUGUUUUUCUGUGAGUGAAAAUUUUGUAAUAAAUUAACAAAUUUGUACAAUUUCCUCUGUCCCUUGUUAUACAUCCCUGCAUACAUCUUUUCACC | 1.35 |
| GAUAGUUGCAAGUUCUUUAUGCACCUUCUACCCCUUCUGAGCCACUACUAUUCAAGCAGAGAUUUUGUCUAAUAGAACAUGCCUUUCUUGCUUUUGCUUCUUUUCUUUUG | 0.686 |
| UGAUACUUGUGGAUGUUUUUCUUCAUUAGAUAAGAAUGUAUUACCAUUAAAUCCAUUAGUAUUACAUUGCUUUCAAAGAGAAGGUGGGUGGAACUAUAAUUCAGCAUCUU | 0.642 |
| GCUCCAUGCUGAAGGCUCCCAUUUUCAGUUCCCUCCUGCCCAGGACUGCAUUGUUUUCUAGCCCCGAGGUGGUGGCACGGGCCCUCCCUCCCAGCGCUCUGGGAGCCACG | 0.436 |
| AGACCUUUCCCUCUCCCUGCCCCUAGAACAACCAGUAUUAGAAGGUGCCACCAUUGGUGCUGCCUUCUCUUCCCACAGCCUGUAACUCAGUGUUUUGUACUUCACUGAAU | 0.479 |
| CGUGUUUUUGAGCUUGCUCUUACGUUUUAAGAGGUGCCAGGGGUACAUUUUUGCACUGAAAUCUAAAGAUGUUUUAAAAAACACUUUUCACAAAAAUAGUCCUUUGUCAU | 0.629 |

Mixed results
| Substance | target | assay | test system | conditions | how to read | measurement | value |
| --- | --- | --- | --- | --- | --- | --- | --- |
| PhoQ, residues 284 288 289 292 302 303 ASTSDA | PhoP, residues 12 14 15 18 19 GQALL (Escherichia coli, UniProt P23836) | Sort-seq, measured: YFP reporter | E. coli | PhoQ-PhoP variant library, added: 10 µM Mg2+ | relative to: high Mg2+ state, higher = stronger signaling | fold induction | 16.6 |

Repeated from above (sample 2):
| Strand | E-score |
| --- | --- |
| GGCACTCA | -0.0636 |
| CGGTGACC | 0.0632 |
| AAGCGTCC | 0.107 |
| AGCCGCCA | 0.188 |
| CCCACAAA | -0.151 |
| GATATCAC | -0.0752 |
| ACAATCAA | -0.113 |
